Measured values gathered from unrelated publications.
Parts stem from different laboratories: compare values within a part only.

Study 1 — method: competition protein-binding microarray; form: double-stranded DNA, one strand shown; matrix: in vitro; concentration: 2 µM; added: Pho4 competitor, 0.05 µM; reading: higher = stronger binding; constant ends, left off below: … GTCTTGATTCGCTTGACGCTGCTG
Target: Centromere-binding protein 1, full length, His-tagged (CBF1, Saccharomyces cerevisiae, UniProt P17106, residues 1-351)
Sequence of UniProt P17106 (whole entry, looked up): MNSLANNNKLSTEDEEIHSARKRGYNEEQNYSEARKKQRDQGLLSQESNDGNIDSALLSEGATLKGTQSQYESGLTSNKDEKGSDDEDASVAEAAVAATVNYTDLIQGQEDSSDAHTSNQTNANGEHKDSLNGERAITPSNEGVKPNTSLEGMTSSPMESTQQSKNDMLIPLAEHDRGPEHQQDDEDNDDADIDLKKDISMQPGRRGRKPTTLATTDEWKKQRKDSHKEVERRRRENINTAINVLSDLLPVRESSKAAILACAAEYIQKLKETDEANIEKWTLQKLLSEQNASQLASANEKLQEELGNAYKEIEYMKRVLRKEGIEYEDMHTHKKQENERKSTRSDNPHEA
Notes: whole 60-bp probe, lowest competitor level
| Sequence | fluorescence intensity [a.u.] |
| --- | --- |
| AAATTTTTACTAGGACACGTGTAACACAGCTCCATG | 1390 |
| TTGGCTTAAATTTGTCACGTGAAGCTCTATTTTTTT | 6820 |
| TTGAGAGTTTCCCATCACGTGGTCGCCTTGCATCGC | 5270 |
| AAAGCGGTAATTTGTCACTTTACTTCACATATCTAT | 86.9 |
| AACATATTGTGTTGACATGTGTAGGCAAAGACAAAA | 105 |
| TTAGTAATCTAGAATCACATGGTACCTCTTTCTTCG | 750 |
| CGTCCTAGTGATTGTCCCGTGGGTGCCATGAGGAAG | 126 |
| CTTCTGTAAATTTGCATAGTGGGTGGACGCGCCCCG | 76.4 |
| ACTGTAGAAAGAGAAAGTGTGGTAAAACCAACCAAT | 74.8 |
| CCCAGAGATATACCACACATGAGACTGAAAAAAGCA | 99.1 |
| AAAGCGGTAATTTGCGCCGTGGGTGCAGATATCTAT | 67.5 |
| CTTAACGGCCTTGTTGGTGTGACGCTCACCTTGCTC | 63.5 |
| CCATATTGGATTACCCACGTCGCCGCGACAGGCCTT | 66.2 |
| AGAAATGCCATTTTGCACGTGACGAAACAAATTGTG | 6740 |
| TGCCATCATCAATTGCACGTTTTCAAGTATTTATAA | 193 |
| GCACTTGCTGCCTGTCACCTGGTACAAAGCCATATG | 269 |
| CTTCTGTAAATTTGGTACGTGGGTGGACGCGCCCCG | 94.8 |
| CATACCCAACCTTGTCACGGGACTTAAGATATTTGT | 1110 |
| AAATTACTAAGTTGCTCTGTGGGTGACGCCGTATGA | 62.6 |
| AAAGCGGTAATTTGACTAGTGGGTGCAGATATCTAT | 75 |
| GTCTTGTCTCATTGCTCTGTGGGTGTCCCCACTTCA | 73.1 |
| CATCATCATCTTCACCACGTGCAAAAAACCTTGTGC | 1410 |
| CTAACGAAGGTTTGTGGCGTGGGTGACAAGCCAAGT | 67 |
| GTCTTGTCTCATTGCTTCGTGGGTGTCCCCACTTCA | 85 |
| CGTCCTAGTGATTTTCACGTGCTATCCATGAGGAAG | 1380 |

Study 2 — method: RNA Bind-n-Seq; form: RNA; matrix: in vitro; concentration: 200 nM; notes: whole 134-nt RNA, ends assumed; added: 150 mM LiCl; baseline: input library; reading: higher = stronger binding; library: 7-deaza-guanosine replaces G
Target: Ras GTPase-activating protein-binding protein 1, full length (G3BP1, Homo sapiens, UniProt Q13283)
Sequence of UniProt Q13283 (whole entry, looked up): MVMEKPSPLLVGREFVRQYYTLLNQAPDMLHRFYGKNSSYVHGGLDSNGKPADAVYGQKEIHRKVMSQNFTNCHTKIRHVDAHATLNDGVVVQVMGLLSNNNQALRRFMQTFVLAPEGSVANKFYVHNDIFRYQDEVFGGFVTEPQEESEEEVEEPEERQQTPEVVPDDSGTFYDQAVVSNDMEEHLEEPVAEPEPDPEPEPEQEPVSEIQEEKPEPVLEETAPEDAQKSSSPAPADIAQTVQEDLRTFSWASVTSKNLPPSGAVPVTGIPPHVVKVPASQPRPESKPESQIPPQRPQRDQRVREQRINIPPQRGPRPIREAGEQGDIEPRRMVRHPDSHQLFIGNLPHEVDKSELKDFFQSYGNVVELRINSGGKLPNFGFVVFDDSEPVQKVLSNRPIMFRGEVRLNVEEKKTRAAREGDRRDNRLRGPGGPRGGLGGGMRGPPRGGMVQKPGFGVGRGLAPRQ
Constant ends, left off below: GGGAGUUCUACAGUCCGACGAUC … UGGAAUUCUCGGGUGUCAAGG
| Sequence | log2 enrichment |
| --- | --- |
| UCCUGUGCUACACAUCGUAUGUACCGAAUCGGCCCCCCGGGGCCCCCCGGGCCCCCCGGGAAAGUAUUAUGUUACGCCGUUCGGAUCUGC | -2.53 |
| AAGUCCUGUGCUACACAUCGUAUGUACCGAAUCGGGUGGGUUUGGGUUUUUUUGGGAAAGUAUUAUGUUACGCCGUUCGGAUCUGCACUU | -0.372 |
| CUGUGCUACACAUCGUAUGUACCGAAUCGGGAAAAAAAGGGUUUUUUUGGGUUUUUUUGGGAAAGUAUUAUGUUACGCCGUUCGGAUCUG | -2.28 |
| UCCUGUGCUACACAUCGUAUGUACCGAAUCGGGGCCCCCGGGGCCCCCGGGCCCCCGGGAAAGUAUUAUGUUACGCCGUUCGGAUCUGCA | -1.49 |
| CUCAAGUCCUGUGCUACACAUCGUAUGUACCGAAUCGGGAGGGUUUGGGAGGGAAAGUAUUAUGUUACGCCGUUCGGAUCUGCACUUCCA | 0.0193 |
| GUCCUGUGCUACACAUCGUAUGUACCGAAUCGGGUUUUGGGGUUUUGGGGUUUUGGGGAAAGUAUUAUGUUACGCCGUUCGGAUCUGCAC | -0.0452 |
| CAAGUCCUGUGCUACACAUCGUAUGUACCGAAUCGGGUUUUUGGGAAAGGGUGGGAAAGUAUUAUGUUACGCCGUUCGGAUCUGCACUUC | -0.381 |
| AGUCCUGUGCUACACAUCGUAUGUACCGAAUCGGGGAGGGGUUUGGGGAAAAAGGGGAAAGUAUUAUGUUACGCCGUUCGGAUCUGCACU | -0.339 |
| CCUGUGCUACACAUCGUAUGUACCGAAUCGGGGUUUUUUUGGGGUUUUUUUGGGGUGGGGAAAGUAUUAUGUUACGCCGUUCGGAUCUGC | 0.867 |
| AGUCCUGUGCUACACAUCGUAUGUACCGAAUCGGGUGGGUUUUUGGGUUUUUUUGGGAAAGUAUUAUGUUACGCCGUUCGGAUCUGCACU | -0.235 |
| UCCUGUGCUACACAUCGUAUGUACCGAAUCAAACCCAAACCCCCCCAAAUUUUUUUAAAAAAGUAUUAUGUUACGCCGUUCGGAUCUGCA | 1.04 |

Study 3 — method: RNA Bind-n-Seq; form: RNA; matrix: in vitro; concentration: 365 nM; baseline: no-protein control; reading: higher = stronger binding
Target: RNA binding protein fox-1 homolog 2, RRM domain, GST-SBP tag (RBFOX2, Homo sapiens, UniProt O43251-10, residues 100-194)
Notes: natural RNA segment, single round, ends assumed
Constant ends, left off below: GGGAGUUCUACAGUCCGACGAUC … UGGAAUUCUCGGGUGCCAA
Construct (chain): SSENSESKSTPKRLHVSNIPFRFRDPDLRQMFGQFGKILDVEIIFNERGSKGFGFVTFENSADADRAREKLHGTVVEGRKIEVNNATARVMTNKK
| Sequence | RBNS enrichment (R) |
| --- | --- |
| UAGAACUGAAUUCCUUCCUCCCCUGUCUCAUUUCUACCCAGUGAGUUCAUUUGUCAUAUAGGCACUGGGUUGUUUCUAUAUCAUCAUCGUCUAUAAACUAGCUUUAGGAU | 0.803 |
| UCUCUGAAUCUGUUAUGAACACGUUGGUUGGCUGGAUUCAGUAAUAAAUAUGUAAGGCCUUUCUUUUAAUUGCUGUUGUAUUGUGGUUUGUCAAUUACUGAAUUCUCCCU | 1.55 |
| UGCCCGCUGUCGGCUGGUUAUAGCACUUCCACUGCUACUGUCAGAUAGGAAGUGAUCGAAGCAGGGGGCAAAGAGAAAGCCCAUAUUUGUUCUAAGCAGAAAAGCAGGAA | 1.82 |
| CGACGCCGAUCCAUAGUACUGUACAGACCCACCGCCACCCUUCUCCUCGGAAGAUGCACUGUGCUGUUUGAAAACAUGUAGCCGUUUAAGGCUAGAGUAUUUUAUAUAAA | 0.591 |
| UGGCAGCACAGACCCCUGGAGGCCCCGGAGGACCCGAGGCGGGGUCCAAGGCUGAGUGAGAGCCGGCCAUGCCUCCCCUCCUACUCCUCUGAAUCUCCCGACCUUGGUCC | 0.748 |
| GCCUCUGGUUACACAUAUUUUAGGCUUUUUUUCCCCCUGAAAUUGUACUUACUGAGGUCCAUGUAUUAAUAAGAGGUCAGUCUGUACAAAAAUCUAAAGAUUUUUUCACU | 0.344 |
| CUUGAGACUUAGGAGGAUUGCCUGUUUUCAGUGUCCAGGGAAUGACUCCAUAGAUUUGAAUUCUUUUCCGUAUGUGGGGAUGGUUGCUACUACCUCACCGCCAAGUCCUC | 0.858 |
| AUUCUGAACCCCUCAGGUUCUCUGAAAGGGCACAGACCAUGGGCGUGAACAUUGUGCCGUACCUGAGAUGGUCUGUGGACUGCUGCUUCAGACACACGAGUCCUCGGAAC | 0.254 |
| AAUGUCCCUUGCACAGCCCACACAUGAACCAUCCUUCCCAUGAUGCCGCUCUUCUGUCAUCCCGCUCCUGCUGAAACACCUCCCAGGGGCUCCACCUGUUCAGGAGCUGA | 0.904 |

Study 4 — method: protein-binding microarray; form: double-stranded DNA, one strand shown; matrix: in vitro; concentration: 2540 nM top; notes: 60-bp whole probe; added: salmon DNA 0.4 mg/ml; baseline: random background probes; reading: higher = stronger binding; constant ends, left off below: GCCTAGCAC … GTCTTGATTCGCTTGACGCTGCTG
Target: Interferon regulatory factor 3, full length, phosphomimetic (IRF3, Homo sapiens, UniProt Q14653, residues 1-427, S386D/S396D/S398D/S402D/T404D/S405D)
Target sequence (chain): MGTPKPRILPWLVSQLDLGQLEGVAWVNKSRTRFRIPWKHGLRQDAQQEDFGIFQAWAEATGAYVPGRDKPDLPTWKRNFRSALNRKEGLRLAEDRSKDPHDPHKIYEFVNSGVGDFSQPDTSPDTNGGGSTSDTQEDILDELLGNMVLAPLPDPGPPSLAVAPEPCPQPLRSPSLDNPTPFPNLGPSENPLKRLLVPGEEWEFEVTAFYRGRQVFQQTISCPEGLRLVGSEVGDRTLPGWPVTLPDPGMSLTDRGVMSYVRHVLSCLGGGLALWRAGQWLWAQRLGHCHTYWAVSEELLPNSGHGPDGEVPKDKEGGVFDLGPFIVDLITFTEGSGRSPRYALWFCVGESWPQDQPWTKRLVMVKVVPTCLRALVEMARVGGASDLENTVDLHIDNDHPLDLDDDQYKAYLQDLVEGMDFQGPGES
| Sequence | fitted relative affinity |
| --- | --- |
| TACGGACTGGGGACTGGGGACGTGCTA | -1.07 z-score |
| TCATTTTCCTACATCAGACTGTGCTAG | 3.11 z-score |
| TAGTATTTTTTTCCAGAGGGGTGCTAG | 0.767 z-score |
| TTAGGTATCGACTATCGGTTAGTGCTA | 0.564 z-score |
| TTAGGTTTGGGTTTCGGTTAGTGCTAG | 3.67 z-score |
| TACAGGTTCTCTTTTATTTTGTGCTAG | 1.68 z-score |
| AATGGAACAAATATGTTTATGTGCTAG | 0.392 z-score |
| CAAGGAACTCAGAGATTTAAGTGCTAG | -0.707 z-score |
| TTAGGTCTGGGTATCGGTTAGTGCTAG | 0.378 z-score |
| ATGATTGGTTGAACATGAACGTGCTAG | -0.24 z-score |
| TTAGATCTCAGTCTCTATTAGTGCTAG | 0.408 z-score |
| GACTGTCTCCTTTTCCTGACGTGCTAG | 4.41 z-score |
| TTAGATAACAGTCTCGATTAGTGCTAG | -0.0292 z-score |
| TTAGGACTGCTAATCCTTTAGTGCTAG | -0.498 z-score |
| ATCTCACTCTGTCCCTCTGTGTGCTAG | 0.874 z-score |
| TTAGGTTTCCTCTTCCTTTAGTGCTAG | 4.52 z-score |
| TCAGATCTGCCGTCCCACTCAGTGCTA | 0.42 z-score |
| TTAGATATCACACTGGATTAGTGCTAG | 0.191 z-score |
| GACGGTTTCGGGACTCGGGACGTGCTA | 4.68 z-score |
| GACGGTCTCGGACTGGGGCCGTGCTAG | -0.0434 z-score |
| AACGGTATCGGACTGGGGACGTGCTAG | 1.41 z-score |
| CCTTCTCTAACCTCTCTAATAGTGCTA | 4.3 z-score |
| GACGATTTCTGACTGGAGACGTGCTAG | 0.771 z-score |
| CTTCATGTTTTTTTCTACTTGTGCTAG | 0.616 z-score |
| GACGATTCAAGTTTCGAGACGTGCTAG | 1.81 z-score |
